Published values gathered from unrelated publications.
Each line is one published result; not all experiments were run side by side. ± gives the spread as reported. Values after ≈ are worked out from the molar mass of the structure shown.
PGR: Progesterone receptor (PGR, Homo sapiens, UniProt P06401)
UniProt P06401, sequence (whole entry, looked up): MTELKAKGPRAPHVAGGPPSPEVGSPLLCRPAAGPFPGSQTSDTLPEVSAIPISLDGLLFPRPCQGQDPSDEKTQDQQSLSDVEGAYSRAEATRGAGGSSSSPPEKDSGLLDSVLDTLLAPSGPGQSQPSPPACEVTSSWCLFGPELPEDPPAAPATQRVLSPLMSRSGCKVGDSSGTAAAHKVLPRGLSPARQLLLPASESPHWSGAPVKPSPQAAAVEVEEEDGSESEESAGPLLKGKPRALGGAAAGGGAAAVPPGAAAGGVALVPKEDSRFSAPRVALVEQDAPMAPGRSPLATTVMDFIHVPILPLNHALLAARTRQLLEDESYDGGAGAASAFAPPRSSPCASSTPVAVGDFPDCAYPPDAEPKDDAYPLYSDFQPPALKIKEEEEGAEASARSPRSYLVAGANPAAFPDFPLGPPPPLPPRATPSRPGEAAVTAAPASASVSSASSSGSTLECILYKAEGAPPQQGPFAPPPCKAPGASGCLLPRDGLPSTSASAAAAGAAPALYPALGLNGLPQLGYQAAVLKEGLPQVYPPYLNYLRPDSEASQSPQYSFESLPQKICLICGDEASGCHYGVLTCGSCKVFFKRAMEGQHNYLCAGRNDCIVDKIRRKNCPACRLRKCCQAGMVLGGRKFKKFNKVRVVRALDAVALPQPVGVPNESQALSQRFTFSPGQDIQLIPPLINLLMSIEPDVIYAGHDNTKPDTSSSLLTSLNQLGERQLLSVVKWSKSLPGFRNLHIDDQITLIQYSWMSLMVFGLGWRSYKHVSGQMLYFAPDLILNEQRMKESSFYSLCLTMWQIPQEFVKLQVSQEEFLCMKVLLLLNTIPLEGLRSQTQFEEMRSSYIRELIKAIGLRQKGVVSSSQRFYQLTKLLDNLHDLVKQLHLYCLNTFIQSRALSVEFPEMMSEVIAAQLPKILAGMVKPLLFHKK
CTSK: Cathepsin K (CTSK, Homo sapiens, UniProt P43235)
UniProt P43235, sequence (whole entry, looked up): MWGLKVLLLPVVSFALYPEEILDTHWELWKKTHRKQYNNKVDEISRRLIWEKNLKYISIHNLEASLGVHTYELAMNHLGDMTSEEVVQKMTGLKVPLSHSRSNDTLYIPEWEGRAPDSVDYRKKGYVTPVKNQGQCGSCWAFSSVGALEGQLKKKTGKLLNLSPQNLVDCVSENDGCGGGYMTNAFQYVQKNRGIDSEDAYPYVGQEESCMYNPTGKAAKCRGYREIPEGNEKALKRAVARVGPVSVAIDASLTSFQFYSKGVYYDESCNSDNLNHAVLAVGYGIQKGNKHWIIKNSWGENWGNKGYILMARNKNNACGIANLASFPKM
UniProt P10721, sequence (whole entry, looked up): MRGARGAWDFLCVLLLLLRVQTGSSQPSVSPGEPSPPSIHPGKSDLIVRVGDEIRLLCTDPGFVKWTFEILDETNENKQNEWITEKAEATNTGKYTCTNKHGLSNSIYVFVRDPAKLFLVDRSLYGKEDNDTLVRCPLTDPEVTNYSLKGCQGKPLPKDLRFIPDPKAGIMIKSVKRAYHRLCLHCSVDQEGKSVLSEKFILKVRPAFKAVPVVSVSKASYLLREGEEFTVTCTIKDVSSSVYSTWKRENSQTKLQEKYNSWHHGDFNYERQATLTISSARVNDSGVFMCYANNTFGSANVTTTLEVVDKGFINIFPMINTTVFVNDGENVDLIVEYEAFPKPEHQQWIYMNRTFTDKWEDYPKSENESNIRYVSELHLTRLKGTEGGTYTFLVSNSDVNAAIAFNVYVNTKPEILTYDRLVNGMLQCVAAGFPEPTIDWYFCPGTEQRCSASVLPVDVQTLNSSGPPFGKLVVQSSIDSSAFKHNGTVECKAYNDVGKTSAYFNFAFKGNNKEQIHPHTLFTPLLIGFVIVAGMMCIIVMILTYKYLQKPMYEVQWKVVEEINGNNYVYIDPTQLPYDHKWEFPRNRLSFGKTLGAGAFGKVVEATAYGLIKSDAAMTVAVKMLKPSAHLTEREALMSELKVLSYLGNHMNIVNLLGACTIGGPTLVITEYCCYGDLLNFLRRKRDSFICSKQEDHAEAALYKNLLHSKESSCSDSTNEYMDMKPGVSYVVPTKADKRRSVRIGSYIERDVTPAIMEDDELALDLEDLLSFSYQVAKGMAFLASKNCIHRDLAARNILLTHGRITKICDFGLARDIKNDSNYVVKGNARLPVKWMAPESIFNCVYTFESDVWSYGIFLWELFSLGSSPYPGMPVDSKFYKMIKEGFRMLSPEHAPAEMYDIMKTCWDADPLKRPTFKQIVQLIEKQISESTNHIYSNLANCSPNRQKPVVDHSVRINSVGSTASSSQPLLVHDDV
UniProt P06536, sequence (whole entry, looked up): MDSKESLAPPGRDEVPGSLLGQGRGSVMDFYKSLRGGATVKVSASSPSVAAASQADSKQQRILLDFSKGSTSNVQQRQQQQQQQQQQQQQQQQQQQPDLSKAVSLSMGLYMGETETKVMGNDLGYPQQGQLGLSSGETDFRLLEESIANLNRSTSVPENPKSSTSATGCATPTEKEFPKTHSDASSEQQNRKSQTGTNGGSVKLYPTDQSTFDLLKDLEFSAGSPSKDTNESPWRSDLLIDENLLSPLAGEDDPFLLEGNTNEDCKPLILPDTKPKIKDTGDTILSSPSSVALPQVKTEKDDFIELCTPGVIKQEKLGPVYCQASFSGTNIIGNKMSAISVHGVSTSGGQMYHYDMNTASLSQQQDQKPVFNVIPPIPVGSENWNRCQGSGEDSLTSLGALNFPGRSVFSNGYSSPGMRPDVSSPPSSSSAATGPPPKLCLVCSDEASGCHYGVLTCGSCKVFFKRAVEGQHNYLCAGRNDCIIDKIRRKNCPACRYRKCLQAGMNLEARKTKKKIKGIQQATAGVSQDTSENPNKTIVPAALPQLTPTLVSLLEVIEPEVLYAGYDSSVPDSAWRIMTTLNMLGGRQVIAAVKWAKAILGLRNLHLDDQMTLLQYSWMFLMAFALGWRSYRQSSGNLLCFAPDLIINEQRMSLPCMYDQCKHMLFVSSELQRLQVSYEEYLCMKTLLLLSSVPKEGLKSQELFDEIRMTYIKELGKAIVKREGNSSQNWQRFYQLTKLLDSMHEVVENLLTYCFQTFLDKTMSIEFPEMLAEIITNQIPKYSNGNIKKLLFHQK
UniProt Q9NQV7, sequence (whole entry, looked up): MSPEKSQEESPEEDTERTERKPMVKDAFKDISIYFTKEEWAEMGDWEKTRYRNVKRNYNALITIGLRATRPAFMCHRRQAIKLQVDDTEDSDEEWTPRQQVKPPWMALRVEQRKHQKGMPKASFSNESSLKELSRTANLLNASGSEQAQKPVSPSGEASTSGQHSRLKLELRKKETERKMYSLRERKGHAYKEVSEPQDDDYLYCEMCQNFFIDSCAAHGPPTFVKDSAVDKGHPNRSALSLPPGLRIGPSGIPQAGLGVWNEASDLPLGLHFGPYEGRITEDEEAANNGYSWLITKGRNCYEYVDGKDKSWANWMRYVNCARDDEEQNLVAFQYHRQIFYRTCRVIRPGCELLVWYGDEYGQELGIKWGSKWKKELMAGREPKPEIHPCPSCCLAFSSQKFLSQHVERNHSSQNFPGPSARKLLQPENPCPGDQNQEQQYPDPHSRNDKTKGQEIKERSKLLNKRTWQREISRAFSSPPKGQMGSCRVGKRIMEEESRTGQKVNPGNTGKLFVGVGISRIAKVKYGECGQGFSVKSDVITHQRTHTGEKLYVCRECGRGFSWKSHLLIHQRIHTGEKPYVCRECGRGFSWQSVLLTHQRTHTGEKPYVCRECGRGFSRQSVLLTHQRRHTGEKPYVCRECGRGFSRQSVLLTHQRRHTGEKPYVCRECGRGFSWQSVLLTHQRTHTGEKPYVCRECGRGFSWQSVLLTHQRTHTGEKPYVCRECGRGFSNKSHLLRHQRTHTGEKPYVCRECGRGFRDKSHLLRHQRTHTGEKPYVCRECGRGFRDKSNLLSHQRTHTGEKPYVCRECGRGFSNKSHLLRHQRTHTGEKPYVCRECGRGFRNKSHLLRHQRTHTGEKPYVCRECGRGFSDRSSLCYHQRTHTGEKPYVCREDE
UniProt Q3UFF7, sequence (whole entry, looked up): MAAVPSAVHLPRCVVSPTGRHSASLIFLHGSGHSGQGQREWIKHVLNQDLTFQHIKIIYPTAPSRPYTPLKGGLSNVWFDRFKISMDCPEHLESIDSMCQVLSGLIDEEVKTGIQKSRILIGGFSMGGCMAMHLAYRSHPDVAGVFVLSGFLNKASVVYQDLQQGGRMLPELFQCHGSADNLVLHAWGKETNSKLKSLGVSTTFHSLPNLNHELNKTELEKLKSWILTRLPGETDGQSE

CCCCC(C)Sc1nc2c([nH]1)c(=S)n(C)c(=O)n2C (stereo not drawn)  remaining activity (PGR; reporter gene, antagonist, MMTV-luciferase; T47D/A1-2; 10 µM, 24 h, together with: 5 nM progesterone; baseline: maximal activity): 58%
CC1(C)CCN(Cc2ccc(C(=O)NC[C@]3(O)CCCN(c4cc(NCc5ccccc5)ncn4)C3)c(O)c2)CC1  remaining activity (Histone-lysine N-methyltransferase PRDM9 (PRDM9, Homo sapiens, UniProt Q9NQV7); enzyme activity, inhibitor, radiometric; 10 µM): 101%
Cc1nc2ccc(S(=O)(=O)n3nc(SCc4ccc(Cl)cc4)nc3N)cc2s1  remaining activity (Lysophospholipase-like protein 1 (Mus musculus, UniProt Q3UFF7); gel-based ABPP; mouse, liver and kidney; intraperitoneal, 100 mg/kg; baseline: vehicle): 1.8 to 2 fold
CC(C)(C)OC(=O)NC(Cc1cccc(Cl)c1)C(=O)NCC=CS(=O)(=O)c1ccccc1 (stereo not drawn)  remaining activity (CTSK; enzyme activity, inhibitor, fluorescence; 5 µM): 79%
N=C(N)NCCC[C@@H]1NC(=O)[C@H](Cc2c[nH]c3ccccc23)NC(=O)[C@H](CCCNC(=N)N)NC(=O)[C@H](Cc2c[nH]c3ccccc23)NC(=O)[C@H](CCCNC(=N)N)NC(=O)[C@H](Cc2c[nH]c3ccccc23)NC(=O)[C@H](CCCNC(=N)N)NC(=O)[C@H](Cc2c[nH]c3ccccc23)NC(=O)[C@H](CCCNC(=N)N)NC(=O)[C@H](Cc2c[nH]c3ccccc23)NC(=O)[C@H](CCCNC(=N)N)NC(=O)[C@H](Cc2c[nH]c3ccccc23)NC(=O)[C@H](CCCNC(=N)N)NC(=O)[C@H](Cc2c[nH]c3ccccc23)NC(=O)[C@H](CCCNC(=N)N)NC(=O)[C@H](Cc2c[nH]c3ccccc23)NC(=O)[C@H](CCCNC(=N)N)NC(=O)[C@H](Cc2c[nH]c3ccccc23)NC1=O  remaining activity (Mast/stem cell growth factor receptor Kit (KIT, Homo sapiens, UniProt P10721); enzyme activity, inhibitor; 5 µM): 38.8%
O=C(/C=C/c1coc2ccccc2c1=O)N1CCN(C(=S)SC2CC2)CC1  EC50 (tomato spotted wilt virus; virus inactivation, half-leaf method; Nicotiana glutinosa; tested 31.25 to 500 µg/mL): 358 ± 7.6 µg/mL (≈ 895 µM)
CC(=O)N[C@@H](Cc1c[nH]c2ccccc12)C(=O)N[C@@H](Cc1c[nH]c2ccccc12)C(=O)N[C@@H](Cc1c[nH]c2ccccc12)C(=O)N[C@@H](Cc1c[nH]c2ccccc12)C(=O)N[C@@H](Cc1c[nH]c2ccccc12)C(=O)N[C@@H](Cc1c[nH]c2ccccc12)C(=O)NCCCC[C@@H]1NC(=O)[C@H](CCCNC(=N)N)NC(=O)[C@H](CCCNC(=N)N)NC(=O)[C@H](CCCNC(=N)N)NC(=O)[C@H](CCCNC(=N)N)NC(=O)[C@H](CCCNC(=N)N)NC(=O)[C@H](CCCNC(=N)N)NC1=O  remaining activity (Protein kinase C alpha type (PRKCA, Homo sapiens, UniProt P17252); enzyme activity, inhibitor; 5 µM): 6.8%
O=C(/C=C/c1coc2ccccc2c1=O)N1CCN(C(=S)SCc2ccccc2)CC1  curative effect (tomato spotted wilt virus; viral infection, half-leaf method; Nicotiana glutinosa; 500 µg/mL): 51.9 ± 2.3%
CCSc1nc2c([nH]1)c(=O)n(C)c(=O)n2C  remaining activity (PGR; reporter gene, antagonist, MMTV-luciferase; T47D/A1-2; 10 µM, 24 h, together with: 5 nM progesterone; baseline: maximal activity): 60%
COC(=O)CN1CCCc2cc3cc(C(=O)NC(Cc4cccc(Cl)c4)C(=O)NCC=CS(=O)(=O)c4ccccc4)c(=O)oc3cc21 (stereo not drawn)  remaining activity (CTSK; enzyme activity, inhibitor, fluorescence; 5 µM): 17%
CCCCCCCCSc1nc2c([nH]1)c(=O)n(C)c(=S)n2C  remaining activity (Glucocorticoid receptor (Nr3c1, Rattus norvegicus, UniProt P06536); reporter gene, antagonist, MMTV-luciferase; T47D/A1-2; 10 µM, 24 h, together with: 5 nM dexamethasone; baseline: maximal activity): 91%
O=C(O)c1ccnc(C(=O)O)c1Br  remaining activity (fdhA (Pseudomonas putida, UniProt P46154); inhibitor, spectrophotometric; 200 µM): 100%

Repeated from above:
CC1(C)CCN(Cc2ccc(C(=O)NC[C@]3(O)CCCN(c4cc(NCc5ccccc5)ncn4)C3)c(O)c2)CC1  remaining activity (Histone-lysine N-methyltransferase PRDM9 (PRDM9, Homo sapiens, UniProt Q9NQV7); enzyme activity, inhibitor, radiometric; 10 µM): 101%
Cc1nc2ccc(S(=O)(=O)n3nc(SCc4ccc(Cl)cc4)nc3N)cc2s1  remaining activity (Lysophospholipase-like protein 1 (Mus musculus, UniProt Q3UFF7); gel-based ABPP; mouse, liver and kidney; intraperitoneal, 100 mg/kg; baseline: vehicle): 1.8 to 2 fold
